Results from different studies.
Compare with care: the assays were run in different laboratories. Numbers after ± are the reported error.
UCHL1: Ubiquitin carboxyl-terminal hydrolase isozyme L1 (UCHL1, Homo sapiens, UniProt P09936)
Sequence of UniProt P09936 (whole entry, looked up): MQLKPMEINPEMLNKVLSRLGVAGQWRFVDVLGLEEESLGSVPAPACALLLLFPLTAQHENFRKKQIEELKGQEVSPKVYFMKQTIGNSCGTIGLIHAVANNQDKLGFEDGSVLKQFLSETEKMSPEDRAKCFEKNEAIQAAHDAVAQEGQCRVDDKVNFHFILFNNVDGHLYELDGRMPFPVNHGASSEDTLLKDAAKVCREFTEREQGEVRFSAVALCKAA
LYN: Tyrosine-protein kinase Lyn (LYN, Homo sapiens, UniProt P07948)
Sequence of UniProt P07948 (whole entry, looked up): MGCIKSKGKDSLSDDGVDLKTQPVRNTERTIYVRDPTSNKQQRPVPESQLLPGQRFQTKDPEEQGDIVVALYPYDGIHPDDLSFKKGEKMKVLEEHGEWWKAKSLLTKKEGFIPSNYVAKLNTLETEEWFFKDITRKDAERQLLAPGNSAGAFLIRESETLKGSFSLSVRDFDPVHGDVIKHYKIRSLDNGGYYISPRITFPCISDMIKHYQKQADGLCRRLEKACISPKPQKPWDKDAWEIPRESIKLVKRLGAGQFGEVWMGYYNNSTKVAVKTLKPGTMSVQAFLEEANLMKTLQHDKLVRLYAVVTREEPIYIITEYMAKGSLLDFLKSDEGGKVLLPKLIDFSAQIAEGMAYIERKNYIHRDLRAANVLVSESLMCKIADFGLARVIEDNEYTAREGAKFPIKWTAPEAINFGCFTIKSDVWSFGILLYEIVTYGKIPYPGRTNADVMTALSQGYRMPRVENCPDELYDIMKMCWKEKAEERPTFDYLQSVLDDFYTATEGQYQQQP
LYN isoform A: Tyrosine-protein kinase Lyn, isoform A (LYN, Homo sapiens, UniProt P07948)
LYN isoform B: Tyrosine-protein kinase Lyn, isoform B (LYN, Homo sapiens, UniProt P07948)

CCCCNC(=O)C(C#N)=Cc1cc(F)ccc1F — labelling (UCHL1; covalent, intact protein LC-MS; 12.5 µM): 9.7%
Cc1cc(Nc2cc(N3CCN(C)CC3)nc(Sc3ccc(NC(=O)C4CC4)cc3)n2)[nH]n1 — remaining activity (LYN; kinase activity, KinaseProfiler; 0.03 µM, species human; baseline: control): 90%
[2H]c1cc(C)c(NC(=O)c2cnc(Nc3cc(N4CCCCC4)nc(C)n3)s2)c(Cl)c1 — inhibition (LYN isoform A; 0.0001 µM): > 50%
CC(C)(O)[C@H]1CC[C@H](Nc2ccc3ncc(-c4cccc(C(F)(F)F)c4)n3n2)CC1 — remaining activity (LYN isoform B; enzyme activity, inhibitor; 1 µM, added: 10 µM ATP; baseline: DMSO): 94.5%
CC#CC(=O)N1CCC[C@H]1c1nc(-c2ccc(C(=O)Nc3ccccn3)cc2)c2c(N)nccn12 — remaining activity (LYN isoform B; kinase activity, inhibitor, HotSpot radiometric; 100 nM, added: ATP 10 µM): 99.4 ± 1.8%
COc1cc2ncnc(Nc3ccc(Oc4ccccc4)c(C)c3C)c2cc1OC — inhibition (LYN; kinase activity, inhibitor; 1 µM): 83%
Cc1cccc(NC(=O)C(C#N)=Cc2ccc(F)c(F)c2)c1 — labelling (UCHL1; covalent, intact protein LC-MS; 12.5 µM): 20%
Cc1nc(Nc2ncc(C(=O)Nc3c(C)cccc3Cl)s2)cc(N2CC[C@H](O)C2)n1 — inhibition (LYN isoform A; 0.001 µM): 95%
O=C(CSc1nc2nccnc2c(=O)n1CCc1ccccc1)Nc1nccs1 — inhibition (LYN; kinase activity, inhibitor; 10 µM): 2%
COc1ccc(F)cc1C(=O)NCc1ccc(-c2nn([C@@H](C)C(F)(F)F)c(N)c2C(N)=O)cc1 — remaining activity (LYN isoform B; kinase activity, inhibitor, HotSpot radiometric; 1000 nM, added: ATP at Km): 90 ± 1.9%
[2H]c1cc(C)c(NC(=O)c2cnc(Nc3cc(N4CCC(O)CC4)nc(C)n3)s2)c(Cl)c1 — inhibition (LYN isoform A; 0.001 µM): > 50%
C=CC(=O)N1CCC[C@@H](n2nc(-c3ccc(Oc4ccccc4)cc3)c3c(N)ncnc32)C1 — remaining activity (LYN; kinase activity, inhibitor, HotSpot radiometric; 100 nM, added: ATP 10 µM): 25.3 ± 0.1%
CC/C(=N\NC(=O)NCc1cccc(O)c1)c1ccc(O)c(C)c1O — inhibition (LYN isoform A; kinase activity; 0.1 µM): 0.4%

Some of these lines once more:
[2H]c1cc(C)c(NC(=O)c2cnc(Nc3cc(N4CCCCC4)nc(C)n3)s2)c(Cl)c1 — inhibition (LYN isoform A; 0.0001 µM): > 50%
